Published values from different studies.
Each numbered part is a random draw from the data of one study; scales do not carry over between parts. Substitutions count along the parent as printed.

Block 1
Target: RING finger protein unkempt homolog, zinc fingers 1-6, GST-SBP tag (UNK, Homo sapiens, UniProt Q9C0B0, residues 30-357)
Method: RNA Bind-n-Seq
Molecule type: RNA
Matrix: in vitro
Concentration: not given
Setting: RNA with constant flanks, ends assumed
Baseline: input RNA pool
Reading: higher = stronger binding
Constant ends, left off below: GGGAGUUCUACAGUCCGACGAUC … CAACAGAGGAUUGAGCAUCA
Target sequence (chain): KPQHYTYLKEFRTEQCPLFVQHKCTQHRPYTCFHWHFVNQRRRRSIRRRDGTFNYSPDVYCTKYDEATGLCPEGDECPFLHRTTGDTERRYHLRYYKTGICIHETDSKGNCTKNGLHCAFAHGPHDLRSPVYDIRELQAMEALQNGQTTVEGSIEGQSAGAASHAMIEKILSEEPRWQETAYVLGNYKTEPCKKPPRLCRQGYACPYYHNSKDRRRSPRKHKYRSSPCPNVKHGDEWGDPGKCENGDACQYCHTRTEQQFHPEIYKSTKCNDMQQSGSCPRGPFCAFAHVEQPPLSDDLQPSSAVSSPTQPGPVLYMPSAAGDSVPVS
Oligonucleotide | bound/input enrichment [ratio]
CAAUUACUGGAAAAUAAAAGGAGUUCAUGUAGUUUUUGUCCAGGCUUGAGUCACCAUGAGCCGCCGUUUAGGAAAAGAAAAAGACUCUAAAGAAAAAGAUCCCAAAGUACCAUCAGCCAA | 0.561
UGUUUUUUUAUAGCUGUUUGUAUAAUAUGUGAGUAUUUUAUAGUAUGUUAGUUUUUAACACCGUAAGUGCUGUAAAAUAUACUUCUUUUGUAUUCAAUUAAUCCUUUUUAAUUUUUUUUG | 9.64
UCACCACAGAGCAUUUUAGAUGAUGUUGCCAUGGUACUAGAUGAAGAAGCAGAAGUUUUUACCGUCAAAAUGUGGAGAUUAUUGAUAUAUGAAACAGAAGCCAAGAAAAUUGGCCUUGUG | 0.551
CGUAGAGGGACAGAGAGCUUAGAUCACCUUGCUGGUCUUUCUCAUUAUUACCAUGCUGAUACCCGCUACAGACAUUUUCCAAAAUCUGAGAAGUAUAGCAUCAGUAGACUCACACUUGAA | 0.163
CAGAUGAGGAAACUGAGGCCCAGAGAAGCAGAAAGGACUUCUCUGAACCUCACUGUAAAUCCGCAUUAAAUGCAGCCGUCCUACUACUGGCAUUUUACCUACAAAAAUUUUGCUAGGGAU | 0.129
GACAGAAAGUACCACCUAAAGACAUACAGACAAUGCUGUGUUGGGACUGAGCUGGCCGACUGGAUGAUACAGCAGACAUCCUGUGUUCACUCGCGGACUCAAGCUGUUGGCAUGUGGCAA | 0.107
CCAGUUGUAUACAAAUACCUAACAGAGAAAGCAGUAAAAUGGUCACAGCAGGUUGAACGUCACCGAGAACAUCUCAUUAACUACAUUAUAUUUUUGAGAAUAACACCAUUUCUGCCUAAU | 1.57
GUUUGCUUUGUGAACAUAUGUGUAUUGUAUAUAUUCUGUAUAGUUAUACUGUACUGAAAUAUCCGCUUGUUUGAUAUGAGAAAAAGUAUGUAUUGAGUACCUUUUUGCUAGCCUGAUUGC | 0.494
UCUACUUCCUCCUCCUCCUCUGAAGACGACUGUUUUGAGAGGAGAACAAAAAGGAACCGAAACCGAGCUAUUAACAGGUGCCUCCCACUAAAUUUUCGGAAAGAUGAAAUAAGAGGGAUU | 0.216
UACACAAGGAAAGUUGACUACUUCCCAUUCCUGGAUUUAGGAGAGGAACUCAGAAGGCCCUCCGGAUGAUCUGUUUGUAUGGGAAGAAGUUAGAGACAAUGGAUUUUAUAAUUCCAGAUU | 0.0967
CACACAAUGUUUUUACAAGAUUUUAGACCAUUUCUAAGUAGCAAUCCACUGGACCAAGAUAACCGAGCCAAUGAGAGAGGUCACCAAACUCACACUGACUUUUGGGGACCAAGUCGGCCU | 1.34

Block 2
Target: ABI1, truncated, D143A, DHFR fusion (Arabidopsis thaliana, UniProt P49597)
Method: DHFR PCA, dose-response
Matrix: yeast
Setting: Hill fit, not affinity
Added: (+)-ABA, dose series
Reading: lower = more sensitive
Starting sequence: PYL1, truncated, DHFR fusion (Arabidopsis thaliana, UniProt Q8VZS8); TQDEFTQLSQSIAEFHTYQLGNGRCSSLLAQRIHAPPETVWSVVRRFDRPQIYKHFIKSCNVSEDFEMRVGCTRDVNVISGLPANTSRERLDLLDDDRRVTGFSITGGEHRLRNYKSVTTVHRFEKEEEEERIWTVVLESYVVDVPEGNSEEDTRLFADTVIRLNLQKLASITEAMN
Variant | ABA EC50
L93I | 0.539 µM
A84W | 3.79 µM
N77Q | 2.1 µM
R123Q | 6.4 µM
Q2L | 7.49 µM

Block 3
Target: RNA binding protein fox-1 homolog 2, RRM domain, GST-SBP tag (RBFOX2, Homo sapiens, UniProt O43251-10, residues 100-194)
Method: RNA Bind-n-Seq
Molecule type: RNA
Matrix: in vitro
Concentration: 365 nM
Setting: natural RNA segment, single round, ends assumed
Baseline: no-protein control
Reading: higher = stronger binding
Constant ends, left off below: GGGAGUUCUACAGUCCGACGAUC … UGGAAUUCUCGGGUGCCAA
Residues (chain): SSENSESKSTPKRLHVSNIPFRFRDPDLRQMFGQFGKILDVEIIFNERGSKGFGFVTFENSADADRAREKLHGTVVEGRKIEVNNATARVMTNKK
Oligonucleotide | RBNS enrichment (R)
CAUUUUGUUUCUUGUACAAUAUCUCAUGUGACCCAAACUUGAGACUCCAAACAGUACCUUUGCUUUGUUUGUACAAAAAUGAAGACCUAUAGCCAACACAAAGCAAAUGC | 0.573
UAAUUCCCAGCACCACGAAAUUGUUAUACAUACAUCCCUACCAGUCACAUUCCCUGUGUUCAGAGCCUGGAAAUGAAAUUGAGUUCAGUUCAGCCUCUCUGUAAUGAAUC | 0.727
UUUGUGUGUAUCCCCUCCGUGAAAUCCAGCCAAUUAUCAGGGUAGAAGAUGGGUGCAUGAGAAUCUUGGCUCAGCCAAAGCCCCUUCAUGGAAAUACAAGCCAUAAAAUU | 0.924
CUUCCCCUCUCCCUACAAAUGGAACCUUGUGGAAACAGGAUGCUAAACACCUUCUGAUGGAGCUGUUGCCUGCAGGCCACUGGUCUUUGGGAAUUUUCAAUAAAGUGCUU | 0.722
ACAGCUGCUGGCGCUACAAUUAGUGAGGCGAAAAUAACCACGAUCCACAUUACCAUCAAGCCCUUGACAUUCGCAGCACUUGCUGUGGGGAAAGCAGGCCAAGAACUUGU | 0.385
GAGUAACUGAAGCACAUUGGAAAGAUUCUCAAUUUUGUGUUUCCUGUAAAAACAGUGCUCUCUGCUGCUAGGACCUUUUUUCUGCUUCCUGUCAUUUUCAUGUGGCUUGA | 0.376
UGCUAUCAUCAUUAACAGCGUAAUUAUACAAGCAUAUUUAAUGCUGAGUUUAAUUUAAUAUGUAAUACAUAUGGUAAUUGUAGGGUAAUACCCACAACAACUGUAGUUUC | 0.341
CAUCCUCCAUAUAAUCAUCUUUGUUAUUCGUGGGGGUUUAAUUACAUUACAAGUGGCCAAAACCCCUGUUCUCAGUGAAGAACCACAUUGGAUUUGUAUUCUGUUCAGUU | 0.288
AAAUGAUGACCCACUCUGGGUAUAAGCUUGAUUUCCUUUGUUGAGACUUACCCUUCAUUGAAGAGAAAAAGAAGACAGUCAAAAAAGGUCCAGGUUACAAAGUUCUCCUC | 0.296
GCACUGUGAAGAAUGAGAAGGGAAAAGCAAAAAUUAUCCUUGUGAAAUAUCUGCUGAUUGUGCCCUACUCUUUGCACCUGACUUUUCCUAGUUGUCCUGGUGCUAACACA | 0.325
CUAUUUAUCUUCAGGGUCACUCUGGGCAAAGAGAAGGUCCUCAGCCAUGCCCCCAGCACCUUGCACAUAGGUGUCUGAUAAAAGUUUAAGAAAGUAAACACUUUUUGAGC | 0.249
CCUAUAGUCCCAGCUAUUCGGGAGGCUGAGGCAAGAGAAUUGCUUGAACCCGGGAGGUGGAGGUCGCAGUGAGCUGAGAUCCUGCCACUGCACUCCAACCUGGGGGUAAC | 0.466

Block 4
Target: CCND1, cyclin fold, Cln2 fusion (human)
Method: yeast growth competition, sequencing
Matrix: yeast
Setting: weak parent motif
Baseline: not given
Reading: higher = stronger binding
Starting sequence: ORC1 docking peptide (human); PRARKRLELGNLG
Variant | normalised enrichment score
L12M | 0.472
K5M | -0.307
L9C | -0.0028
R2I | 0.477
E8Y | -0.238
G13Y | -0.206
G10P | -0.479
R4H | 0.452
K5R | -0.0437
R6I | 0.33
L12K | -0.221
L7D | 0.157
G10T | -0.611
G10A | -0.205
N11E | -0.288
L9T | -0.617
L12Y | -0.258
R4T | 0.632
E8H | -0.765
R4K | -0.644
L12Q | -0.391
L7M | -0.319
G10C | 0.0293
E8S | -0.114

Block 5
Target: Histone acetyltransferase KAT6A, winged helix 1, GST fusion (KAT6A, Homo sapiens, UniProt Q92794, residues 1-85)
Method: protein binding microarray
Molecule type: double-stranded DNA, one strand shown
Matrix: in vitro
Concentration: not given
Setting: 8-mer, flanks averaged, mean of 2 arrays, mostly near background
Baseline: not given
Reading: higher = stronger binding
Target sequence (chain): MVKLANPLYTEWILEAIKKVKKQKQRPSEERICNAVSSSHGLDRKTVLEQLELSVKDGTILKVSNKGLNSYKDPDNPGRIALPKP
Oligonucleotide | E-score
AGCTTCAA | -0.207
CACTCTAA | -0.132
ACAAAATA | -0.258
CAGCGCCC | 0.113
CTAGGGTA | -0.08
CGGGTGGC | 0.283
AACACTGC | 0.0755
ATGTGATG | -0.167
GCAATGCC | 0.141
TTCGAAAA | -0.0716
ACCGTCAT | 0.205
CGCGACCA | 0.323
AGATCTTG | -0.259
ACCCAAGT | -0.243
AGCAGGCC | 0.0379
TCCCGTCA | 0.239
GGCAACAC | -0.0402
ACGAGGGC | 0.0277
TCAAAACA | -0.0204
ATTTAGTG | -0.183
ACACACTG | -0.011
CCATGGAG | -0.092
GCATCTCA | -0.0649
CACTGGTC | -0.108

Excerpt of the above (block 5):
Oligonucleotide | E-score
TTCGAAAA | -0.0716
ACCGTCAT | 0.205
CGCGACCA | 0.323
AGATCTTG | -0.259
